Measured values collected from several papers.
A part holds a random share of what one study measured. Positions count from the first letter of the parent shown.

Series 1
Target: RING finger protein unkempt homolog, zinc fingers 1-6, GST-SBP tag (UNK, Homo sapiens, UniProt Q9C0B0, residues 30-357)
Sequence of UniProt Q9C0B0 (30-357, looked up): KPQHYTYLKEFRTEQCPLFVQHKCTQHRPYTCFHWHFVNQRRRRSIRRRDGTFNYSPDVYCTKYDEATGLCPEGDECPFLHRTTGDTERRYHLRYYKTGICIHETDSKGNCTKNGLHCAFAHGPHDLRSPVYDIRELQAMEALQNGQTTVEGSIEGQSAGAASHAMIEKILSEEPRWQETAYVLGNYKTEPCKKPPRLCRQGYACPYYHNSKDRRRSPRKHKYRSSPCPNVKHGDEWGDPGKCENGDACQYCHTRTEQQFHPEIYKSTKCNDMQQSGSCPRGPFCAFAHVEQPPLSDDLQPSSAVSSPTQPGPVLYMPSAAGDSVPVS
Method: RNA Bind-n-Seq
Form: RNA
Medium: in vitro
Concentration: not given
Notes: RNA with constant flanks, human and mouse sites, ends assumed
Reference: input RNA pool
Direction: higher = stronger binding
Measurement: bound/input enrichment
Constant ends, left off below: GGGAGUUCUACAGUCCGACGAUC … CAACAGAGGAUUGAGCAUCA
CCUGCCUCACCAGUUGGUACACUGUUUUCUGAAAGAGGUGGGAUCCAAAAGAGCUGUUUCUAGCUGCACUCCAAGCAUCUGAGACUUUGGGCACAAGGACACUUUUCUUUUCUUUUUUUU: 0.298 ratio
GUUGACUCCCUCAAUGGAUUGGUUUACAUAGGUCAAAGAGGGGAUAACAUCCCAAAGAUAUUAGUGUUCACAGAGGAUGGAUAUUUCCUACGAGCCUGGAAUUAUACAGUUGACACACCU: 0.304 ratio
UCUUCUAAGAAUGGAUUUGGAUUCCGAGAUAGUGAUCUGGAUAUUUGUAUGACUCUGGAAGGCCAUGAAAAUGCAGAGAAAUUAAACUGUAAAGAAAUAAUUGAAAAUUUGGCGAAAAUU: 0.348 ratio
UAGGAAUGCUCGGGCUAAAGGAAUGUCAUUUUACAAGUAUGUAAUGGAAAGUCGUGAUCCUAGUACAAAUGUGAUAUUAUUGGAGGAUACUGCUGCAGUCUUGGGAGUUAUAAUAGCAGC: 1.03 ratio
AAUUCCUGCGCCUUCCUGACGUGAGCCCUGAGCGAUCUUCUAUGCAGUUCUGCCAUGCGUCCUGUUGGUCUCUCUGUGUUCUUUGUUACUUGGGUGCAAUAGCAACUUCCCUACCCCGUG: 0.214 ratio
AGGUUUCAAAGUGCAGCCAUCGGUGCCCUUCAGGAGGCUAGCGAAGCAUACCUGGUGGGGUUGUUUGAAGAUACCAAUCUGUGUGCCAUCCACGCCAAGAGAGUCACCAUCAUGCCCAAA: 0.137 ratio
GGUUUUGACCGCCACAUUACCAUUUUUUCACCCGAGGGUCGGCUCUACCAAGUAGAAUAUGCUUUUAAGGCUAUUAACCAGGGUGGCCUUACAUCAGUAGCUGUCAGAGGGAAAGACUGU: 0.398 ratio
CAGGUCUAUGGAGUCGAGGUGCCUGCAGAGGGUGAGGCCGAGAAGCCUUGGUGGCAGGUAUUUAGUGAUGACCUUACCAAGCCAAUCAUUGACAAUAUUGUGUCUGAUCUCAUUCAGAUU: 0.131 ratio
UCUAUCAUUGUCUUCAACCUGGUGGAACUGGAAGGUGAUUAUCGAGAUGAUCAUAUCUUUUCCCUUUACUUCAUGAUACCAUUUUUCUUUACCACCUUGGGACUGCUUUACCACAACUGG: 0.151 ratio
AUCACUACGUGGAGGGGAAAGAGGCAGCUCCCACCUGGCACCCAUUGCACAUAGGCUCCCCAGGAGGACAGAUCAUCAUCCACGGCUCACCUGUGCCUGGGCACAUCUUGGAGAGCUUGU: 0.119 ratio
CGACAUGUCCUCACCUACAUGGAGGAUGCAGUGUGCCAGCUGCUAGAAAACAGGGAAGAUAUUAGCCAAUAUGGAAUUGCCAGGUUCUUCACUGAAUAUUUUAACAGUGUAUGCCAGGGA: 0.694 ratio

Series 2
Target: Interferon regulatory factor 1, DNA-binding domain (IRF1, Homo sapiens, UniProt P10914, residues 1-114)
Method: protein-binding microarray
Form: hairpin DNA
Medium: in vitro
Concentration: not given
Notes: whole hairpin DNA, median over replicate spots
Reference: not given
Direction: higher = stronger binding
Measurement: median fluorescence
Residues (chain): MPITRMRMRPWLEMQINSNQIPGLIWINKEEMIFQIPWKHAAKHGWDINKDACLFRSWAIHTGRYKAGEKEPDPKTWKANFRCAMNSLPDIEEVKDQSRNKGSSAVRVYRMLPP
GAGGCCCTAAAGCGAAACGCCTCCTGGCGTTTCGCTTTAGGGCCTCACAC: 860 a.u.
GAGGCCAGAAAGTGAAACGCCTCCTGGCGTTTCACTTTCTGGCCTCACAC: 1710 a.u.
GAGGCCCGAAAGTGACGCGCCTCCTGGCGCGTCACTTTCGGGCCTCACAC (5mC at 16 30): 520 a.u.
GAGGCCCGAAAGCGAATCGCCTCCTGGCGATTCGCTTTCGGGCCTCACAC: 490 a.u.
GAGGCCGGAAAGTGAAACGCCTCCTGGCGTTTCACTTTCCGGCCTCACAC (5mC at 40): 1280 a.u.
GAGGCCCGAACGTGAAACGCCTCCTGGCGTTTCACGTTCGGGCCTCACAC (5mC at 35): 498 a.u.
GAGGCCCGACGGTGAAACGCCTCCTGGCGTTTCACCGTCGGGCCTCACAC (5mC at 10 36): 557 a.u.
GAGGCCCGGAAGCGAAACGCCTCCTGGCGTTTCGCTTCCGGGCCTCACAC: 654 a.u.
GAGGCCCGCGAGTGAAACGCCTCCTGGCGTTTCACTCGCGGGCCTCACAC (5mC at 37): 530 a.u.
GAGGCCCCGAAGCGAAACGCCTCCTGGCGTTTCGCTTCGGGGCCTCACAC (5mC at 8 38): 588 a.u.
GAGGCCCGAAAGCGACGCGCCTCCTGGCGCGTCGCTTTCGGGCCTCACAC: 526 a.u.
GAGGCCCGAAAGCGCGACGCCTCCTGGCGTCGCGCTTTCGGGCCTCACAC: 553 a.u.
GAGGCCCGAGAGTGAAACGCCTCCTGGCGTTTCACTCTCGGGCCTCACAC (5mC at 37): 538 a.u.
GAGGCCCGACGGCGAAACGCCTCCTGGCGTTTCGCCGTCGGGCCTCACAC (5mC at 10): 496 a.u.
GAGGCCCGGAAGTGAAACGCCTCCTGGCGTTTCACTTCCGGGCCTCACAC: 793 a.u.
GAGGCCCGAAACCGAAACGCCTCCTGGCGTTTCGGTTTCGGGCCTCACAC: 1630 a.u.
GAGGCCCGAAAGCGGAACGCCTCCTGGCGTTCCGCTTTCGGGCCTCACAC: 536 a.u.

Series 3
Target: ABI1, truncated, D143A, DHFR fusion (Arabidopsis thaliana)
Method: DHFR PCA, deep sequencing
Medium: yeast
Notes: methotrexate growth selection, single substitutions
With: (+)-ABA 710 µM
Reference: wild-type fitted maximum
Direction: higher = stronger binding
Measurement: relative binding score
Parent: PYL1, truncated, DHFR fusion (Arabidopsis thaliana); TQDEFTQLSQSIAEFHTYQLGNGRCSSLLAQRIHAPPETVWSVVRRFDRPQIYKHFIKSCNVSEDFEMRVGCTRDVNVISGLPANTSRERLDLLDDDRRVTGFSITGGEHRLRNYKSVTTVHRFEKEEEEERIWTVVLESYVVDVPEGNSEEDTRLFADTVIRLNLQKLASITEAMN
Y141H: 21.2%
I162M: 58%
T120F: 5.93%
L93C: 112%
N61H: 98.5%
T160W: 91%
S140H: 26.6%
Y53E: -10.1%
A84Q: 28.7%
V143F: 43.6%
E174V: 93.5%
R98N: 115%
A158I: 103%
D96T: 73.8%
R111Q: 84.5%
L164W: 98.5%
R32H: 99.7%
R45A: 81.8%

Series 4
Target: Histone acetyltransferase KAT6A, winged helix 1, GST fusion (KAT6A, Homo sapiens, UniProt Q92794, residues 1-85)
Method: protein binding microarray
Form: double-stranded DNA, one strand shown
Medium: in vitro
Concentration: not given
Notes: 8-mer, flanks averaged, mean of 2 arrays, mostly near background
Reference: not given
Direction: higher = stronger binding
Measurement: E-score
Target sequence (chain): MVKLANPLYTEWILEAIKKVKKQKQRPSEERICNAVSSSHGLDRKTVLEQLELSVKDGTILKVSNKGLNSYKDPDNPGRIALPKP
AGACCCAA: -0.142
GCCAACTA: -0.12
GTAAACAA: -0.141
AATGGGCT: -0.219
ACGTCGAT: -0.0606
AAATCCCT: -0.0365
AAAGTGTA: -0.23
ACGCTAAG: 0.113
AACCCCAT: -0.178
AAGTATCC: -0.0461
GACGTGGC: 0.0156
AAAACATT: -0.0906
CGGCGCTA: 0.427
AGTCGCGG: 0.348
CGAACCAA: -0.116
AACGACGC: 0.0806
AAGTGGTC: -0.124
CGTAGAGC: 0.0773
ATTCGATG: -0.143
CCTTAATA: -0.118
CACGTCTC: 0.0337
AGGAAGTG: -0.117
CCGTGGCG: 0.318
AATACGAT: -0.0815
GCTGAAAC: 0.0725

Series 5
Target: Interferon regulatory factor 7, full length, phosphomimetic (IRF7, Homo sapiens, UniProt Q92985, residues 1-503, S101K/S471D/S472D/S475D/S476D/S477D/S483D/S484D/S487D)
Method: protein-binding microarray
Form: double-stranded DNA, one strand shown
Medium: in vitro
Concentration: 250 nM
Notes: 60-bp whole probe
With: salmon DNA 0.4 mg/ml
Reference: random background probes
Direction: higher = stronger binding
Measurement: log fluorescence
Constant ends, left off below: GCCTAGCAC … GTCTTGATTCGCTTGACGCTGCTG
Residues (chain): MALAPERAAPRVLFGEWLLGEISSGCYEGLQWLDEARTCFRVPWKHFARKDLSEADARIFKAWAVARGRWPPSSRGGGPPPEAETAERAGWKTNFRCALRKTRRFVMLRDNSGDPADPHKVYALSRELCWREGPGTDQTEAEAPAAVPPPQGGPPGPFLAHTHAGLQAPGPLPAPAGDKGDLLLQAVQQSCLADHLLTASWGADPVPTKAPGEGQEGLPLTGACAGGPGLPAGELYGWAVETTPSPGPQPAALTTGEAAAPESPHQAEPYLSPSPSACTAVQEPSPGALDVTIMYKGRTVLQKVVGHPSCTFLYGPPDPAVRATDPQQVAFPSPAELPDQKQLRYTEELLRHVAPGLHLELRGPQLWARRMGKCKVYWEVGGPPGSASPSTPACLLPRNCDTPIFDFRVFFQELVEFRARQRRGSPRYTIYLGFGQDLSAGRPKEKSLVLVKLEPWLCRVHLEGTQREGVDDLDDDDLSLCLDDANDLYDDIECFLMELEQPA
TCAGCAAAAATGATTGGACTGTGCTAG: -0.17 z-score
GTTTTTTAAAGTTTCAGTGAGTGCTAG: 1.71 z-score
TTAGATATCAGTCTCGATTTGTGCTAG: 5.33 z-score
CCTCCCCTTGCTTTCCAATTGTGCTAG: 0.0557 z-score
GACGGTTTCGACACTGGCGACGTGCTA: 3.75 z-score
GACGATTTCGGGAATCGAGACGTGCTA: 1.22 z-score
CACTCTCAGAATCTCTCATGGTGCTAG: 0.391 z-score
TTTGCTCTGTGCATAGTTCTGTGCTAG: -0.527 z-score
GACGGACTTGGGTATCGGGACGTGCTA: -0.0635 z-score
CCCTGAGGAATCCTGCAGCCGTGCTAG: -0.712 z-score
GACGATATCGGGGTTCGAGACGTGCTA: -0.171 z-score
TCATTTTAAGTTCTCTGACTGTGCTAG: 1.09 z-score
CACGTTGCTCAAGGGCTTGAGTGCTAG: 0.928 z-score
GACGGTCTCGGTCTCGGGATGTGCTAG: 1.26 z-score
GACGGTTTCCTCATCCTGACGTGCTAG: 1.71 z-score
TCATTTTTTTTTTTTTTACTGTGCTAG: 1.15 z-score
TAGTATATACACTTATGACTGTGCTAG: -0.0308 z-score
TTAGGTTTCCCTCTCCTTTAGTGCTAG: 1.54 z-score
TTCGGTTTCGGGACTGGGTTAGTGCTA: 4.92 z-score
CGTCATTTCACAGTTAACCAGTGCTAG: 0.693 z-score
GACGAACTCAGTCTCGAGACGTGCTAG: 0.397 z-score
ATAATTTTTCTAGTGGTTGCGTGCTAG: 0.702 z-score
TTAGGTCTCTGACTGGGTTAGTGCTAG: -0.252 z-score
TTAGGACTAGACTATCGGTTAGTGCTA: 0.0463 z-score
GACGGTTCCCTACTGCTGACGTGCTAG: 0.365 z-score

Series 6
Target: CCNE1, cyclin fold, Cln2 fusion (human)
Method: yeast growth competition, sequencing
Medium: yeast
Notes: weak parent motif
Reference: not given
Direction: higher = stronger binding
Measurement: normalised enrichment score
Parent: RB1 docking peptide (human); PKPLKKLRFDIEG
F9P: -0.194
R8A: -0.174
E12F: 0.891
R8S: 0.223
R8M: 0.635
P3C: 2.05
K5A: -0.347
K2M: 0.119
K5T: 0.406
P3I: 0.44
K2R: 0.862
P1S: -0.314
L4Y: 0.679
L7P: 1.21
P1Y: 0.123
D10R: 1.45
P1K: 0.324
L7Y: -0.235
P3V: 0.0568
